Measured values of several laboratories.
Parts stem from different laboratories: compare values within a part only. Values joined by “and” are separate records of one study, mostly repeats; a detail may differ.
Chain of UniProt P05177 (whole entry, looked up): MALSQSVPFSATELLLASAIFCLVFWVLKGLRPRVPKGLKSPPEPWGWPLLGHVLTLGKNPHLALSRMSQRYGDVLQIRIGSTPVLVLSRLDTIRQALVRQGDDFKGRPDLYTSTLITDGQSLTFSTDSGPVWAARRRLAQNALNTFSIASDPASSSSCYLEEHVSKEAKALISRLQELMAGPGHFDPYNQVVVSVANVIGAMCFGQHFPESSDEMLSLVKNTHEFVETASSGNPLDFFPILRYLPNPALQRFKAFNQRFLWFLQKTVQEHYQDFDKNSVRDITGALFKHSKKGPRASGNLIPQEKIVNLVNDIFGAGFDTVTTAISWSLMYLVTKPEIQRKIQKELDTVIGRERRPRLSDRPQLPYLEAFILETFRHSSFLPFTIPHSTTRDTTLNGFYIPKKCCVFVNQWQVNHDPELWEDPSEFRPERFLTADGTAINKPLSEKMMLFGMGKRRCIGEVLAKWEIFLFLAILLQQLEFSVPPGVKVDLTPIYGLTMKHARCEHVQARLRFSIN
Chain of UniProt P10632 (whole entry, looked up): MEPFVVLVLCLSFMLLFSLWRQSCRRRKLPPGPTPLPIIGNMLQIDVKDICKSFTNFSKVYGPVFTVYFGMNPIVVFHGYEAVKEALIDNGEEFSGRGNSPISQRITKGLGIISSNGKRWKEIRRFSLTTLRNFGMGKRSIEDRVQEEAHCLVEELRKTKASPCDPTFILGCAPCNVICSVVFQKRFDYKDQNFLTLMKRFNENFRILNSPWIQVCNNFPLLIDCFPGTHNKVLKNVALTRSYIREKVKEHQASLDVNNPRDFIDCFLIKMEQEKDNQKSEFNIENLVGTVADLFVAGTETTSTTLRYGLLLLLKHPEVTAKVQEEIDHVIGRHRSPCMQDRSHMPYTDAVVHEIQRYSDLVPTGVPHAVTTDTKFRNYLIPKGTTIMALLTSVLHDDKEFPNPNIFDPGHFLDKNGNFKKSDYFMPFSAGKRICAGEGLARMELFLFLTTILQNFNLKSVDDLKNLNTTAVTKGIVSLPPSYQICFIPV
Chain of UniProt P10635 (whole entry, looked up): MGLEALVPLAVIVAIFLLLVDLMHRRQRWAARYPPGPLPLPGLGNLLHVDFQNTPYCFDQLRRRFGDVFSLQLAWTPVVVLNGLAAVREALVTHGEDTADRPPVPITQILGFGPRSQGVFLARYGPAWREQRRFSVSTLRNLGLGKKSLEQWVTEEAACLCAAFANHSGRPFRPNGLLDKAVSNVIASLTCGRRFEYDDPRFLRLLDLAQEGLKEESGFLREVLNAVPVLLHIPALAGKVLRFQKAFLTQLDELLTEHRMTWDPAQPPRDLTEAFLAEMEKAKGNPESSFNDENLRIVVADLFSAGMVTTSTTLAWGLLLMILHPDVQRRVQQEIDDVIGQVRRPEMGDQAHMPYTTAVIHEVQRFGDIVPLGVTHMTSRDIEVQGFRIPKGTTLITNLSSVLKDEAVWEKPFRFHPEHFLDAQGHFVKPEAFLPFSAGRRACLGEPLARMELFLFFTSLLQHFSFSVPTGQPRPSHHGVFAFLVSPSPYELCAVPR

Set 1
SMILES: C[C@@H]1CN(c2ccc(-c3cc(C(=O)NCCOCCOCCOCCOCCOCCOCCNC(=O)/C=C/c4[nH]cc(C(=O)N[C@@H](CC(N)=O)c5ccc(F)c(Cl)c5)c4-c4ccc(Cl)cc4F)ccc3F)cc2NC(=O)c2ccc(F)cc2C(F)(F)F)C[C@H](C)N1C
Observed: thermal unfolding
Method: differential scanning fluorimetry
Tested at: 5.5 µM
Reading: higher = more unfolded
DCAF1: DDB1- and CUL4-associated factor 1 (DCAF1, Homo sapiens, UniProt Q9Y4B6)
Chain of UniProt Q9Y4B6 (whole entry, looked up): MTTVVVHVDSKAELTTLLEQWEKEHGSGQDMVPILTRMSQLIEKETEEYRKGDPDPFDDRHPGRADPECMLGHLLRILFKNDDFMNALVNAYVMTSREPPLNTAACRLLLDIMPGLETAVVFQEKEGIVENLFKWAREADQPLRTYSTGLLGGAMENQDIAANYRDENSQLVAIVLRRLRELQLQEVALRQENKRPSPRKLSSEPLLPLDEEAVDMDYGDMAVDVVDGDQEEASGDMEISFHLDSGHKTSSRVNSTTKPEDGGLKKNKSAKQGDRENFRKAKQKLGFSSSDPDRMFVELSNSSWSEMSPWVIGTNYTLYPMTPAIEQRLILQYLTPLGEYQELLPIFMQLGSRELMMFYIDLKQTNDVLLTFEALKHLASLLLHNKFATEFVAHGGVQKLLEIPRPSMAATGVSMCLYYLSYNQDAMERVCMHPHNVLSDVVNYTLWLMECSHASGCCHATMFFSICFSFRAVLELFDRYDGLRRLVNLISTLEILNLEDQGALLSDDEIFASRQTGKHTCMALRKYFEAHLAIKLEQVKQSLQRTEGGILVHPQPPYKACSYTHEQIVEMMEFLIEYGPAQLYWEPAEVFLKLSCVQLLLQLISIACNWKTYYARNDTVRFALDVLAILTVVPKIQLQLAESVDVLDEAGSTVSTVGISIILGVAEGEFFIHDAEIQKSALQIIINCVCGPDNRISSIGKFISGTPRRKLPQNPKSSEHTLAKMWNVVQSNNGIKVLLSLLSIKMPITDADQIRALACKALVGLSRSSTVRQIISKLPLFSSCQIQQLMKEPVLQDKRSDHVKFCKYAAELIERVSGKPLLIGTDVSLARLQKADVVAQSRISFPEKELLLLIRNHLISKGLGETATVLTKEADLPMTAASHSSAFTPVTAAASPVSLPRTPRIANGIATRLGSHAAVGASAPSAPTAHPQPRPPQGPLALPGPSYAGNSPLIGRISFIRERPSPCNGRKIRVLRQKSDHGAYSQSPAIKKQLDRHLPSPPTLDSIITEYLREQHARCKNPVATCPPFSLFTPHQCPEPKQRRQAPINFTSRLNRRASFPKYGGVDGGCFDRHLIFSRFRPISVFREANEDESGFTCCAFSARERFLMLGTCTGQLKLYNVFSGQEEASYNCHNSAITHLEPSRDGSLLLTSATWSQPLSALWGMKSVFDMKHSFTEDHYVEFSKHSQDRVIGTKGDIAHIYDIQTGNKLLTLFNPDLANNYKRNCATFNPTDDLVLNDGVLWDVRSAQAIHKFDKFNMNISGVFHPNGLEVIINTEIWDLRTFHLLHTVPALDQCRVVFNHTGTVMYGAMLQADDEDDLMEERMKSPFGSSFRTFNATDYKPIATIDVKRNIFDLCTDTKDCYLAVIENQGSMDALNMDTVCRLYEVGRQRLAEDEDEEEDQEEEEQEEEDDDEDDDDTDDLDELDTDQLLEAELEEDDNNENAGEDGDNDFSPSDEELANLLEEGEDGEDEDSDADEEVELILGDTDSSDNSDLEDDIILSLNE
WDR5: WD repeat-containing protein 5 (WDR5, Homo sapiens, UniProt P61964)
target	temperature	SYPRO Orange fluorescence
DCAF1	57.21 °C	35100 a.u.
WDR5	86.81 °C	59600 a.u.
DCAF1	58.41 °C	40400 a.u.
WDR5	32 °C	13700 a.u.
DCAF1	37 °C	10700 a.u.
DCAF1	52.41 °C	21200 a.u.
WDR5	27 °C	13300 a.u.

Set 2
Compound: Cc1ncsc1-c1ccc(C(CO)NC(=O)C2CC(O)CN2C(=O)C(C(C)C)n2cc(-c3ccc(COc4c(-c5c(C)c(F)cc6[nH]ncc56)c(C5CC5)cc5c(N6CC7CC6CN7)nc(OC6CCOCC6)nc45)cc3)nn2)cc1 (centres unmarked)
Time: 6 days
cell line	observed	method	tested at	baseline	viability
PK-59	cell growth or viability	ATP luminescence	0.1 µM	–	14.1% and 13.5% and 11.2% and 13.1%
AsPC-1	–	CellTiter-Glo	1 µM	DMSO	4.28% and 5.68% and 4.3%
HPAC	cell growth or viability	ATP luminescence	300 pM	–	54.1% and 68.5% and 88.2% and 70.8%
HCT-116	cell growth or viability	ATP luminescence	3 nM	–	99.5% and 92.9% and 89.4% and 106%
COLO 320	cell growth or viability	ATP luminescence	1 µM	–	77.7% and 104% and 88.5% and 77.5%
NCI-H358	cell growth or viability	ATP luminescence	30 nM	–	106% and 86.8% and 90.7% and 91.2%
GP2d	cell growth or viability	ATP luminescence	1 nM	–	61.2% and 59.6% and 52.4% and 55.6%

Set 3
Compound: NC/C(=C\F)COc1cccc(Cn2c(=S)[nH]c(=O)c3[nH]cnc32)c1
Action: inhibitor
CYP3A4: Cytochrome P450 3A4 (CYP3A4, Homo sapiens, UniProt P08684)
Chain of UniProt P08684 (whole entry, looked up): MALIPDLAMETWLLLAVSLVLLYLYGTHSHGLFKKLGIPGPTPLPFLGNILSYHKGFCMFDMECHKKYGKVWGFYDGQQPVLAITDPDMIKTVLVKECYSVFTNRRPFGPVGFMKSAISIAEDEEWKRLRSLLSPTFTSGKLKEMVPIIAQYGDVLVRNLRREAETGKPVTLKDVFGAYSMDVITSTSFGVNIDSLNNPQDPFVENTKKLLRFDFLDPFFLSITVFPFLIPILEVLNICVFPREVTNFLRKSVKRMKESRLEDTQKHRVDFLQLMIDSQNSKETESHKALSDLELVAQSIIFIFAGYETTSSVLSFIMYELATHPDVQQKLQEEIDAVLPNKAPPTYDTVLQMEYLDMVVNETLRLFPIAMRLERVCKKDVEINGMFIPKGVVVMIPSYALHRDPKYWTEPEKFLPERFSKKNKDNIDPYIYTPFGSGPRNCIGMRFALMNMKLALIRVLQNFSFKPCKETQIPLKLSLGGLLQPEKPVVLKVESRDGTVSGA
CYP2C19: Cytochrome P450 2C19 (CYP2C19, Homo sapiens, UniProt P33261)
Chain of UniProt P33261 (whole entry, looked up): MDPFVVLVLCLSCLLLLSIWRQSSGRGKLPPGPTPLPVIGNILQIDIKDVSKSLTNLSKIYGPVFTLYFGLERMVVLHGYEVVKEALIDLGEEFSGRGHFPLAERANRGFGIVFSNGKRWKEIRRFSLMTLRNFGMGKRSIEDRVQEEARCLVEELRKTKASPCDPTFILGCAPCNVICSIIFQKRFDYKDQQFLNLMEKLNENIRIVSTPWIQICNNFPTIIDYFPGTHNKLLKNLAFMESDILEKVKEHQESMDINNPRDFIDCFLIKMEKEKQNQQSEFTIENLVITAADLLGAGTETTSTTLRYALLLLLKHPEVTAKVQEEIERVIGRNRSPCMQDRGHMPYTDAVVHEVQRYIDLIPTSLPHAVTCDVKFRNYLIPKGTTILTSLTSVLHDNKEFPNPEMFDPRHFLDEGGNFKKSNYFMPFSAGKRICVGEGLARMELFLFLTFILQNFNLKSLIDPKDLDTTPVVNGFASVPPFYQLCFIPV
target	observed	tested at	notes	remaining activity
Cytochrome P450 1A2 (CYP1A2, Homo sapiens, UniProt P05177)	–	3.33 µM	–	99.7% and 106%
Cytochrome P450 2C8 (CYP2C8, Homo sapiens, UniProt P10632)	–	30 µM	–	37.6% and 35.1%
CYP3A4	enzyme activity	3.33 µM	–	74.8%
CYP3A4	enzyme activity	30 µM	–	37.3%
Cytochrome P450 2D6 (CYP2D6, Homo sapiens, UniProt P10635)	–	30 µM	–	70.1% and 77.1%
CYP2C19	–	3.33 µM	–	67.3% and 107%
CYP3A4	enzyme activity	0.37 µM	CYP3A4-MID substrate	99.7%
CYP2C19	–	0.37 µM	–	98.6% and 122%

Set 4
SMILES: Cc1ccc(O)c(C)c1-c1cnc2[nH]c(-c3cnc(N4CCC5(CC4)CC(N4CCN(c6ccc(N[C@H]7CCC(=O)NC7=O)cc6F)CC4)CO5)nc3)cc2c1C#N (single isomer, unassigned)
Matrix: plasma
Route: oral
species	dose	bioavailability
female CD-1 mouse	40 mg/kg	91.3%
male cynomolgus monkey	10 mg/kg	20.5%
male beagle dog	5 mg/kg	67.9%
male Sprague-Dawley rat	20 mg/kg	166%

For quick reference, copied from above (set 1):
target	temperature	SYPRO Orange fluorescence
DCAF1	57.21 °C	35100 a.u.
WDR5	86.81 °C	59600 a.u.
DCAF1	37 °C	10700 a.u.
DCAF1	58.41 °C	40400 a.u.
